Experimental data from different studies.
Each line is one published result; not all experiments were run side by side. ≈ marks a conversion by molar mass, not a printed value.
GBA1 R534H: Lysosomal acid glucosylceramidase (GBA1, Homo sapiens, UniProt P04062, R534H)
Chain of UniProt P04062 (whole entry, unmodified, looked up): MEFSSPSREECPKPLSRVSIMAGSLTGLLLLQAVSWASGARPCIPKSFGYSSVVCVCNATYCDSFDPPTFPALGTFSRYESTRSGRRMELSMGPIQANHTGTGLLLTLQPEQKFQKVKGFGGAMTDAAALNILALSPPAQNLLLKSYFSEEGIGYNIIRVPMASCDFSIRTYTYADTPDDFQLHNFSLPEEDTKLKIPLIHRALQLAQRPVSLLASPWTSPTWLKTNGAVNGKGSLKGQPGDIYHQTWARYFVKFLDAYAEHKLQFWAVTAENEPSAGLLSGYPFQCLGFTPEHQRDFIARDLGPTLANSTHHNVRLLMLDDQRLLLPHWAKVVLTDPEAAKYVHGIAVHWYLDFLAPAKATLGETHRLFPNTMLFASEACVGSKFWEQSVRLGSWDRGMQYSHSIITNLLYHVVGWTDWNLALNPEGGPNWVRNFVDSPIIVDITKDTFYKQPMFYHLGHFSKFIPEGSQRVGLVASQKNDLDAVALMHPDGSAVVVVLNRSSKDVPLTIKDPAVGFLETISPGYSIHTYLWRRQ

OC[C@@H]1[C@@H](O)[C@H](O)[C@@H](O)CN1CCCC(F)(F)COCc1ccc(-c2ccccc2)cc1
IC50 (GBA1 R534H; inhibitor, 4MU-β-D-glucopyranoside; together with: 4MU-β-D-glucopyranoside): 0.3 µM

COc1cc(C(=O)O)ccc1NC(=O)c1ccc(NC(=O)c2ccc(NC(=O)[C@H](Cc3c[nH]nn3)NC(=O)c3ccc(NC(=O)/C(C)=C/c4ccc(O)cc4)cc3)cc2)c(OC)c1
MIC (Salmonella enterica serovar Kentucky; broth microdilution; ciprofloxacin-sensitive): 0.5 mg/L (≈ 0.586 µM)

COc1cc(Cc2cnc(N)nc2N)cc(OC)c1OC.O=c1[nH]cc(F)c(=O)[nH]1
MIC (Streptococcus pneumoniae; broth microdilution; 24 h): 0.25 mg/L

CN(C)CCNc1c2c(c(C#N)c3nc4ccccc4n13)CCCC2
relative translation (Trypanosoma cruzi; reporter mRNA translation, inhibitor, measured: capped polyadenylated Renilla luciferase mRNA; cell-free extract; concentration not given; reference: control RNA): 110%

COc1cc(C(=O)O)ccc1NC(=O)c1ccc(NC(=O)c2ccc(NC(=O)[C@H](Cc3c[nH]nn3)NC(=O)c3ccc(NC(=O)/C(C)=C/c4ccc(O)cc4)cc3)cc2)cc1O
MIC (Salmonella enterica serovar Kentucky; broth microdilution; ciprofloxacin-resistant): 1 mg/L (≈ 1.19 µM)

CC[C@H]1OC(=O)[C@H](C)[C@@H](OC(=O)Cc2ccccc2Cl)[C@H](C)[C@@H](O[C@@H]2O[C@H](C)C[C@H](N(C)C)[C@H]2O)[C@](C)(OC)C[C@@H](C)C(=O)[C@H](C)[C@@H](O)[C@]1(C)O
MIC (Cryptococcus neoformans; microbial growth; ATCC208821): > 32 mg/L

C/C(=N\NC(=O)c1ccc(Cl)cc1)c1ccccn1
relative translation (Trypanosoma cruzi; reporter mRNA translation, inhibitor, measured: capped polyadenylated Renilla luciferase mRNA; cell-free extract; concentration not given; reference: control RNA): 112%

OC[C@@H]1[C@@H](O)[C@H](O)[C@@H](O)CN1CCCCCOCc1ccc(-c2ccccc2)c(F)c1
IC50 (GBA1 R534H; inhibitor, 4MU-β-D-glucopyranoside; together with: 4MU-β-D-glucopyranoside): 0.2 µM

CC[C@H]1OC(=O)[C@H](C)[C@@H](OC(=O)Cc2ccc3c(c2)OCO3)[C@H](C)[C@@H](O[C@@H]2O[C@H](C)C[C@H](N(C)C)[C@H]2O)[C@](C)(OC)C[C@@H](C)C(=O)[C@H](C)[C@@H](O)[C@]1(C)O
MIC (Cryptococcus neoformans; microbial growth; ATCC208821): > 32 mg/L

CCCC/C=C/C(=O)N[C@@H](Cc1cc(F)cc(F)c1)C(=O)N[C@H]1COC(=O)[C@@H]2CCCN2C(=O)[C@H](C)NC(=O)[C@@H]2C[C@@H](C)CCN2C(=O)[C@@H]2CCCN2C1=O
MIC (Streptococcus pneumoniae; microbial growth, broth dilution): 0.012 mg/L (≈ 0.0156 µM)

C=C[C@]1(C)C[C@@H](OC(=O)CSc2ccc(NC(=O)c3ccco3)cc2)[C@]2(C)[C@H](C)CC[C@]3(CCC(=O)[C@H]32)[C@@H](C)[C@@H]1O
MIC (Mycoplasma gallisepticum; chicken lung isolates; 5 mg/kg to chickens): 0.00195 mg/L (≈ 0.00337 µM)

O=[N+]([O-])c1cc(Cl)c2cccnc2c1O
MIC (Streptococcus pneumoniae; microbial growth, broth dilution; ATCC49619): 8 mg/L (≈ 35.6 µM)

COc1cc(C(=O)Nc2ccc(C(=O)O)cc2)ccc1NC(=O)c1ccc(NC(=O)[C@H](Cc2c[nH]nn2)NC(=O)c2ccc(NC(=O)/C(C)=C/c3ccc(O)cc3)cc2)cc1
MIC (Salmonella Typhimurium; broth microdilution; TA100): 2 mg/L (≈ 2.43 µM)

CCCC/C=C/C(=O)N[C@@H](Cc1cc(F)cc(F)c1)C(=O)N[C@H]1COC(=O)[C@@H]2CCCN2C(=O)[C@H](C)NC(=O)[C@@H]2C[C@@H](C(C)C)CCN2C(=O)[C@@H]2CCCN2C1=O
MIC (Streptococcus pneumoniae; microbial growth, broth dilution): 0.098 mg/L (≈ 0.123 µM)

CCCC[C@@H]1NC(=O)[C@@H](CC(C)C)NC(=O)[C@H](CCCCNC(=O)CN2CCN(CC(=O)O)CCN(CC(=O)O)CC2)NC(=O)NNC(=O)[C@H](Cc2c[nH]cn2)NC(=O)[C@@H](Cc2c[nH]c3ccccc23)NC1=O [copper-64 labelled]
tissue uptake (Balb/c mice, brain; intravenous, dose not given): 0.01 %ID/g

CCOc1c(NC(=O)c2ccc(NC(=O)[C@H](Cc3c[nH]nn3)NC(=O)c3ccc(NC(=O)/C(C)=C/c4ccc(O)cc4)cc3)cc2)ccc(C(=O)Nc2ccc(C(=O)O)c(O)c2OC)c1O
MIC (Salmonella Typhimurium; broth microdilution; TA100): 0.031 mg/L (≈ 0.0345 µM)

CC[C@H]1OC(=O)[C@H](C)[C@@H](OC(=O)Cc2ccc([N+](=O)[O-])cc2)[C@H](C)[C@@H](O[C@@H]2O[C@H](C)C[C@H](N(C)C)[C@H]2O)[C@](C)(OC)C[C@@H](C)C(=O)[C@H](C)[C@@H](O)[C@]1(C)O
MIC (Cryptococcus neoformans; microbial growth; ATCC208821): > 32 mg/L

COc1c(NC(=O)c2ccc(NC(=O)c3ccc(NC(=O)[C@H](Cc4c[nH]nn4)NC(=O)c4ccc(NC(=O)/C(C)=C/c5ccc(O)cc5)cc4)cc3)cc2O)ccc(C(=O)O)c1O
MIC (Salmonella enterica serovar Kentucky; broth microdilution; ciprofloxacin-resistant): 1 mg/L (≈ 1.17 µM)

CC[C@H]1OC(=O)[C@H](C)[C@@H](OC(=O)Cc2ccccc2[N+](=O)[O-])[C@H](C)[C@@H](O[C@@H]2O[C@H](C)C[C@H](N(C)C)[C@H]2O)[C@](C)(OC)C[C@@H](C)C(=O)[C@H](C)[C@@H](O)[C@]1(C)O
MIC (Cryptococcus neoformans; microbial growth; ATCC208821): > 32 mg/L

COc1cc(C(=O)Nc2ccc(C(=O)O)c(O)c2OC)ccc1NC(=O)c1ccc(NC(=O)[C@H](Cc2c[nH]nn2)NC(=O)c2ccc(NC(=O)/C(C)=C/c3ccc(O)cc3)cc2)cc1
MIC (Salmonella Typhimurium; broth microdilution; TA100): 0.063 mg/L (≈ 0.0725 µM)

Cc1c(CN(C)C(=O)/C=C/c2cnc3c(c2)CC(N)C(=O)N3)oc2ccccc12 (stereo not drawn)
MIC (Klebsiella pneumoniae; broth microdilution; AR-0560): 32 mg/L (≈ 82 µM)

CC[C@H]1OC(=O)[C@H](C)[C@@H](O[C@H]2C[C@@](C)(OC)[C@@H](O)[C@H](C)O2)[C@H](C)[C@@H](O[C@@H]2O[C@H](C)C[C@H](N(C)C)[C@H]2O)[C@](C)(OC)C[C@@H](C)C(=O)[C@H](C)[C@@H](O)[C@]1(C)O
MIC (Cryptococcus neoformans; microbial growth; ATCC208821): > 32 mg/L

C/C(=C\c1ccc(O)cc1)C(=O)Nc1ccc(C(=O)N[C@@H](Cc2c[nH]nn2)C(=O)Nc2ccc(C(=O)Nc3ccc(C(=O)Nc4ccc(C(=O)O)cc4)cc3)cc2)cc1
MIC (Salmonella Typhimurium; broth microdilution; TA100): 0.031 mg/L (≈ 0.0391 µM)

CC[C@H]1OC(=O)[C@H](C)[C@@H](OC(=O)c2ccc(N)cc2)[C@H](C)[C@@H](O[C@@H]2O[C@H](C)C[C@H](N(C)C)[C@H]2O)[C@](C)(OC)C[C@@H](C)C(=O)[C@H](C)[C@@H](O)[C@]1(C)O
MIC (Cryptococcus neoformans; microbial growth; ATCC208821): > 32 mg/L

c1ccc2c(c1)nc(CNCC13CC4CC(CC(C4)C1)C3)n2CCOC1CCCCC1
MIC (Streptococcus pneumoniae; ATCC 49619): 4 mg/L (≈ 9.49 µM)

CC[C@H]1OC(=O)[C@H](C)[C@@H](OC(=O)Cc2ccc(C(F)(F)F)cc2)[C@H](C)[C@@H](O[C@@H]2O[C@H](C)C[C@H](N(C)C)[C@H]2O)[C@](C)(OC)C[C@@H](C)C(=O)[C@H](C)[C@@H](O)[C@]1(C)O
MIC (Cryptococcus neoformans; microbial growth; ATCC208821): > 32 mg/L

CCCC/C=C/C(=O)N[C@@H](Cc1cc(F)cc(F)c1)C(=O)N[C@H]1COC(=O)[C@@H]2CCCN2C(=O)[C@H](C)NC(=O)[C@@H]2CCCCN2C(=O)[C@@H]2CCCN2C1=O
MIC (Streptococcus pneumoniae; microbial growth, broth dilution): 0.006 mg/L (≈ 0.00793 µM)
